Measured values pooled from the literature.
Numbered parts are unrelated; each lists some results of a single study.

Sample 1
Target: Fragile X messenger ribonucleoprotein 1, C-terminal low-complexity region (Fmr1, Mus musculus, UniProt P35922)
Technique: RNA Bind-n-Seq
Molecule type: RNA
Sample: in vitro
Concentration: 200 nM
Notes: whole 134-nt RNA, ends assumed
Added: 150 mM LiCl
Reference: input library
Direction: higher = stronger binding
Library: 7-deaza-guanosine replaces G
Constant ends, left off below: GGGAGUUCUACAGUCCGACGAUC … UGGAAUUCUCGGGUGUCAAGG
With `CACAGACAACACGCACCCACACAGACACAGAGGGAAGGGGUUGGGAUGGGGACAGGGUGCACAGCAGGGCGGGGUGGGACCCCAGCCCCU` the log2 enrichment was 1.59.
`UUCGACGAAACAAUUCGAAAGCCCAUCAGUUUGGGUUGUGGCCAUACUGUCUGCAAGAUGUGCCUGAAUAAACUCCACCGCAAGGCUUGC` gave a log2 enrichment of 0.0522.
With `UAAAUUCAUCUGAAAAUGGUGAGGACAGGCACAAACGCAAAGAAAGAAAGUCAUCAAGAGGCAGAAGUCACUCAAGAUCUAGGUCUCGUG` the log2 enrichment was -2.45.
With `AAGUCCUGUGCUACACAUCGUAUGUACCGAAUCGGUUUUUGGUUUUUGGGUUUUUGGAAAGUAUUAUGUUACGCCGUUCGGAUCUGCACU` the log2 enrichment was -1.54.
`CGGCCCUGGUGGCAUGCGGGGAGGAAGAGGUGGCCUCAUGGAUCGUGGUGGUCCCGGUGGAAUGUUCAGAGGUGGCCGUGGUGGAGACAG` gave a log2 enrichment of -0.151.
With `AGUCCUGUGCUACACAUCGUAUGUACCGAAUCGGGGAGGGGAAAGGGGAAAAAGGGGAAAGUAUUAUGUUACGCCGUUCGGAUCUGCACU` the log2 enrichment was 0.545.
`CCUCAAGUCCUGUGCUACACAUCGUAUGUACCGAAUCGGUGGGGUGGGUGGGAAAGUAUUAUGUUACGCCGUUCGGAUCUGCACUUCCAG` gave a log2 enrichment of -0.0699.
For `UGGCCCUGGUGGCAUGCGGGGAGGAAGAGGUGGCCUCAUGGAUCGUGGUGGUCCCGGUGGAAUGUUCAGAGGUGGCCGUGGUGCAGACAG`, the log2 enrichment was -1.05.
`CACAGACUACACGCACCCACACAGACACAGAGGGAAGGGGUUGGGAUGGGGACAGGGUGCACAGCAGGGCGGGGUAGGACCCCAGCCCCU` has a log2 enrichment of 0.505.
With `CCUCAAGUCCUGUGCUACACAUCGUAUGUACCGAAUCGGGGCGGCGGGGCGGGAAAGUAUUAUGUUACGCCGUUCGGAUCUGCACUUCCA` the log2 enrichment was -1.2.
With `UCCUGUGCUACACAUCGUAUGUACCGAAUCGGGGAGGGGAAAAAAAGGGGUUUUUGGGGAAAGUAUUAUGUUACGCCGUUCGGAUCUGCA` the log2 enrichment was 0.318.

Sample 2
Target: RING finger protein unkempt homolog, zinc fingers 1-6, GST-SBP tag (UNK, Homo sapiens, UniProt Q9C0B0, residues 30-357)
Technique: RNA Bind-n-Seq
Molecule type: RNA
Sample: in vitro
Concentration: not given
Notes: RNA with constant flanks, human-mouse chimeric sites, ends assumed
Reference: input RNA pool
Direction: higher = stronger binding
Constant ends, left off below: GGGAGUUCUACAGUCCGACGAUC … CAACAGAGGAUUGAGCAUCA
Target sequence (chain): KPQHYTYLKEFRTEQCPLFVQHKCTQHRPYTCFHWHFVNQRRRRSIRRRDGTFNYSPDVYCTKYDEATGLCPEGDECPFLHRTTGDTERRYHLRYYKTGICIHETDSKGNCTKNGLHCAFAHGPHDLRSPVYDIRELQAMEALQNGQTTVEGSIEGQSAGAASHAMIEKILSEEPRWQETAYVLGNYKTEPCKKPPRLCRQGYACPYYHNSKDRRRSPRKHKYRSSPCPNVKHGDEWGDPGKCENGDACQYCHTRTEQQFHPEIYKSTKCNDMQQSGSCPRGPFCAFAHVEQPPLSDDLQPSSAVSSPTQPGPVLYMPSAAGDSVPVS
`AACUUCGUGCAUCGGUUUCCUUUUGUAGCUGUUUCAAUUGGCUUCCUUGUAAAUAAAGAGAUGGAGUUUGGAAUUGUGUACAGCUGUGUGGAAGAUAAGAUGUACACCGGCAGGAAAGGG` gave a bound/input enrichment of 0.368 ratio.
`CACACACUCUUCUGCGGCACCCUCAUUCUGCAGGCCCGGGCCUAUGUGGGACCGCACGUCCUGGCAGUGGUGACCCGCACAGGGUUCUGCACGGCAAAAGGGGGCCUGGUGAGCUCCAUC` gave a bound/input enrichment of 0.129 ratio.
For `GAAUCCUCCCGUGCAAAAUUUUGCAACACCAAGCUCACAGCAGCAGCAUCUUAGUCACAGUAGGGUAGUUUUGGGGCUCUGUGGCCAUGGUUUUACUCACAUGCAGGUUUGGAAAAUGUA`, the bound/input enrichment was 1.44 ratio.
The bound/input enrichment of `AUGGAGAAGGAUUCUCUGCCCCGCUUUGUGCGCUCUGAAUUUUAUAAGGAGCUAAUCAAGUAGUCAUCUGGUCAGGCUUCCAAAAGUUCCUGUGAGUUAUUUCCUCCAUCCUUUGUAGCA` is reported as 0.338 ratio.
`GCUCCUCCCCGCUCUGCAGCCUGGGGACACUGGGCUGGGACCAGAAUCCAGCUUUCUUUUAAUAGUGUCAGUGUAACUGUAUCCCGUGACAUUUCAUUUUUUUUAAAAGAAAAAAACUUU` gave a bound/input enrichment of 0.56 ratio.
`CUGGCCUGGCCCUCCCCAGGGGCCUCCUUUCGUAUAGUAACUGUCAGUGCUACGGAUACUUUCAGCUGCAACUCCCUACUGGGUGGGGCACCCAUUUCAGGCAGAAGGUUUUGGUACCCU` has a bound/input enrichment of 0.367 ratio.
The bound/input enrichment of `ACACAAUAUGAGACCAACAGCAUGGACUUCAAAGUCGGGGCGGAUGGGACAGUCUUCGCCACCCGGGAGCUGCAGGUCCCCUCCGAGCAGGUGGCGUUCACGGUGACUGCAUGGGACAGC` is reported as 0.249 ratio.
`AUCAAAUACUUUGGGGACAUCAUUAGUGUGGGACAGAGACUGUUGCAAGGAGCUCGGAUCUUAGGGAUUCCUGUUAUCAUAACGGAACAAUACCCCAAAGGUCUUGGCAGCACCGUUCAA` gave a bound/input enrichment of 0.146 ratio.
For `UGGCGCCUCCCAUUUUUACUCGUGUUUUUAAGUGUAUUUUUAUAAGAUACAUGUAUUUACAAUUGAGCUUUUGUUACAUAAUGCUGAAAACAUCUCUGAGAUUAUGAAAAAUGUUUCAAU`, the bound/input enrichment was 0.103 ratio.
`GUGCCCUCCUUCUCGCUGCGGAGCCCGAGCUGGGAACCAUUCCGGGACUGGUACCCUCCGCAUAGCCGCCUCUUCGAUCAAGCUUUCGGGGUGCCCCGGUUGCCCGAUGAGUGGUCGCAG` has a bound/input enrichment of 0.0781 ratio.
With `CACGUGUCUGCAGUACUUGAUGUGGAUUACUCUCCCACUGGGAAGGAAUUUGUGUCUGCCAGCUUUGAUAAGUCUAUUAGAAUCUUUCCUGUGGACAAGAGCCGAAGCAGGGAGGUAUAU` the bound/input enrichment was 0.22 ratio.

Sample 3
Target: Histone acetyltransferase KAT6A, winged helix 2, GST fusion (KAT6A, Homo sapiens, UniProt Q92794, residues 85-181)
Technique: protein binding microarray
Molecule type: double-stranded DNA, one strand shown
Sample: in vitro
Concentration: not given
Notes: 8-mer, flanks averaged, mean of 2 arrays, mostly near background
Reference: not given
Direction: higher = stronger binding
Construct (chain): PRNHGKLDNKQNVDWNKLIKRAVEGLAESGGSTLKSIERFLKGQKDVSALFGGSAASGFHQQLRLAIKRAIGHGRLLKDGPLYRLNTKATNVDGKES
`GCCCACGC` gave an E-score of 0.056.
`CCGAGAGG` has an E-score of 0.127.
For `ACGCGATA`, the E-score was 0.00449.
`GCTGGCAA` has an E-score of 0.14.
With `GCGAACGA` the E-score was -0.0214.
With `ATATGGCG` the E-score was -0.0448.
`AACTTTAC` gave an E-score of -0.0271.
The E-score of `CGTCCCCC` is reported as 0.011.
`AAATATTG` has an E-score of 0.0122.
`CGCACCAG` gave an E-score of 0.271.
With `CGCCACAC` the E-score was 0.0762.
The E-score of `CATCGCTA` is reported as 0.113.
For `ATATATTC`, the E-score was 0.0286.
`ACGCTTAG` has an E-score of -0.122.
The E-score of `ACAAGGCC` is reported as 0.0232.
With `AGGTTCCG` the E-score was 0.0239.
With `CGCCGGTA` the E-score was -0.0727.
`CCACACAA` gave an E-score of 0.0553.
`CAAACCAA` has an E-score of 0.246.
`ACCTGATC` has an E-score of -0.0543.
For `AGATCGCT`, the E-score was 0.0275.
The E-score of `CAGGGGCA` is reported as 0.068.
`AGACCACT` gave an E-score of 0.0359.
`AAGGCTCA` has an E-score of -0.0274.
With `ATGGCAGC` the E-score was 0.0652.

Sample 4
Target: RNA binding protein fox-1 homolog 2, RRM domain, GST-SBP tag (RBFOX2, Homo sapiens, UniProt O43251-10, residues 100-194)
Technique: RNA Bind-n-Seq
Molecule type: RNA
Sample: in vitro
Concentration: 365 nM
Notes: natural RNA segment, single round, ends assumed
Reference: no-protein control
Direction: higher = stronger binding
Constant ends, left off below: GGGAGUUCUACAGUCCGACGAUC … UGGAAUUCUCGGGUGCCAA
Construct (chain): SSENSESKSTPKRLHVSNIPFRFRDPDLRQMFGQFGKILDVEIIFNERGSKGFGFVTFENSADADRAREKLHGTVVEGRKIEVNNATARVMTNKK
`CGUCUGACCUUUCUCUCUGCACUUAGGAUUGGUGUCCACUUGUAGAUUUCUUUCAACACAGUAUAAGAAUGUGAUAUAUUGUAUAUUGGAAAGUAUUUACCUUAUUUAUA`: “RBNS enrichment (R)” 24.2.
`GCUGAGGGGGUUGGCUGGGUCUGAGUGCCACCCCCCAGGCCACAGUGAUACCAUCCCAGUGCCAUGAGCCCACACUGCCCGCCCUCAGGCUCUCAGGUGAACGUGGCCGU` — result for “RBNS enrichment (R)”: 0.5.
`GACUUUGCUCAGCCAUGUCCCCUGGGAUACAGGGGCACACCAGGACCAAGUGGCAGACCUGUGGGCUUCAGCCUCGGGGCCGGGGCAUGCCUGCCACCCCCUGACAAAAA`: “RBNS enrichment (R)” 0.377.
`ACCUUUUGUUAAUUAUCUAAAUGGGAAAUGCCAUUAGCUAAACCCCACACACAGCACAGAGAGCAGAGUUUAACCAUAGAUCAUGGUAGGCUCAACAUUCCCUUCUAAAG` — result for “RBNS enrichment (R)”: 0.426.
`CCCCAGACUCAUGGGUGUACAUCAAGAUGCCCAACAGAGGAACUCUUUCUUUCUAACCUUGUUCAGAUUGAGGUGAAAAGUCCAUCUUGCUGAUUUGAUGAUUGAAAUGU` — result for “RBNS enrichment (R)”: 0.358.
`GCCCACCAGGGGAUCAAACCCCUGCUGAUCUUGAUAUCAUAUUUCUGUCAUUUGCCAGUUGAUGGAGCCAAGUUGACCUUUGGUUCUGGUGCUUCACCCAGUUUGGAACU`: “RBNS enrichment (R)” 0.29.
`CCUCUGGCCUGCAGGGCAGCCCAAGUCAUGACUCAGACCAGGUCCCACACUGAGCUGCCCACACUCGAGAGCCAGAUAUUUUUGUAGUUUUUAUGCCUUUGGCUAUUAUG` — result for “RBNS enrichment (R)”: 0.541.
`UCUAAGACAGGAAGGAAAGUGAAGGCAGAGUGAGCAGGUAAGAGAGGGAUAUACAAGGUCACAUUUCAGACACCCACUCGGCAUACCCUGCCGUACUGCAUCAUCAUUUG` — result for “RBNS enrichment (R)”: 0.371.
Under “RBNS enrichment (R)”, `UCAUGAUCCCCUCCACCUGCACUGGUGUGCAUUACUGAAGCAAGGGUCCUGUGGACAUCUUGCAUUUUGGGCACUGCUAGGGGGUCUGGGCUGCUUGGAAGGAGCCAUGG` is recorded as 0.381.
Under “RBNS enrichment (R)”, `AUUCAAACUGACCUGCAUCCAUCCAAAACAAAUUCCUCCUUCAACCUUAUUUUUACUUGAAAUUUGCUAGAAGAAAUAGCAAACCGAAAUUUGUUUUAUGCAUGAGUUAA` is recorded as 5.82.
`GCAAAGAAAGAAACAGCCUUUAAAAGAACUUUCUAAGGGUGGUUUUUGAACCUCGCUGGACCUUGUAUGUGUGCACAUUUGCCAGAGAUUGAACAUAAUCCUCUUGGGAC`: “RBNS enrichment (R)” 0.501.
`UAACAUAUUUCUUCAGACUAACAUCUUAAAACACUGACCUCUAUGAGGUAUUUACUGUGCAAUAACUGAUUCAUUUUUUUCAGAGCUUGAAGCAUCCAAUGAUUUUUCCC` — result for “RBNS enrichment (R)”: 0.662.

Some of these lines once more (sample 3):
`CCACACAA` gave an E-score of 0.0553.
`CAAACCAA` has an E-score of 0.246.
`ACCTGATC` has an E-score of -0.0543.
For `AGATCGCT`, the E-score was 0.0275.
